Measurements gathered from unrelated publications.
Numbered parts are unrelated; each lists some results of a single study. Values joined by “and” are separate records of one study, mostly repeats; a detail may differ.
Sequence of UniProt P22607 (whole entry, looked up): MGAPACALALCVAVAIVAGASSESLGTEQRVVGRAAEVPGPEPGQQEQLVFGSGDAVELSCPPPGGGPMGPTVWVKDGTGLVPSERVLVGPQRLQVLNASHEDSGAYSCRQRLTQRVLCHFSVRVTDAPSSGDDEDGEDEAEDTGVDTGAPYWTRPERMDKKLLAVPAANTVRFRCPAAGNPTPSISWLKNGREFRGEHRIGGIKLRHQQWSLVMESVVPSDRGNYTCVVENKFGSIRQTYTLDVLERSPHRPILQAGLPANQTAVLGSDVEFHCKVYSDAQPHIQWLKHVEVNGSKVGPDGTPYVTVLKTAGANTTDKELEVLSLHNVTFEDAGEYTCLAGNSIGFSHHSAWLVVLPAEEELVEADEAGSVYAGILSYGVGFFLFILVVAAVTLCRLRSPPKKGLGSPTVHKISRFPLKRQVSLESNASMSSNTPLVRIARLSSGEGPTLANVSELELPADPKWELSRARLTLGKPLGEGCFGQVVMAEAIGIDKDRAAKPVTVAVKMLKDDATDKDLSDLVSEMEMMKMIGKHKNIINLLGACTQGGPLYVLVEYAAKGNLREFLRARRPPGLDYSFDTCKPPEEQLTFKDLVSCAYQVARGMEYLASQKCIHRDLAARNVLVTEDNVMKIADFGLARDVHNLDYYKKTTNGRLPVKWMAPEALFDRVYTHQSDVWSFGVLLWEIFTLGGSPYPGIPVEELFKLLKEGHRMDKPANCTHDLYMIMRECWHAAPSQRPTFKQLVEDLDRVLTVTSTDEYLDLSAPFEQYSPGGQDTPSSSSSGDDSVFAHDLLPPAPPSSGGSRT
Sequence of UniProt P53779 (whole entry, looked up): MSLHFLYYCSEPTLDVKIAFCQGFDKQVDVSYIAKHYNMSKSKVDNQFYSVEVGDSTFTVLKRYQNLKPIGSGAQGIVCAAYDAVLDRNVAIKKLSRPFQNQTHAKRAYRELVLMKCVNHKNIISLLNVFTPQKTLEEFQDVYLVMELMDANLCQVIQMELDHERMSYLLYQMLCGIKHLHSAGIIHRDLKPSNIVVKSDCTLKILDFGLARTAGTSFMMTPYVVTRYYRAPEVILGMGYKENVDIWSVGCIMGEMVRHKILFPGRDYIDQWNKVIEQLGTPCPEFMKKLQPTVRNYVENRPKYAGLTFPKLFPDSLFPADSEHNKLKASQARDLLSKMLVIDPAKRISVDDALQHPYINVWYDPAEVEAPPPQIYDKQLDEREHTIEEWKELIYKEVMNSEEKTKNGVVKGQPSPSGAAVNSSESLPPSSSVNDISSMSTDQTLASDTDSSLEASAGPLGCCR

Study 1 — effect on: thermal unfolding; technique: differential scanning fluorimetry; tested at: 5.5 µM; direction: higher = more unfolded; measurement: SYPRO Orange fluorescence
Compound: C[C@@H]1CN(c2ccc(-c3cc(C(=O)NCCOCCOCCOCCOCCOCCOCCNC(=O)/C=C/c4[nH]cc(C(=O)N[C@@H](CC(N)=O)c5ccc(F)c(Cl)c5)c4-c4ccc(Cl)cc4F)ccc3F)cc2NC(=O)c2ccc(F)cc2C(F)(F)F)C[C@H](C)N1C
WDR5: WD repeat-containing protein 5 (WDR5, Homo sapiens, UniProt P61964)
DCAF1: DDB1- and CUL4-associated factor 1 (DCAF1, Homo sapiens, UniProt Q9Y4B6)
Sequence of UniProt Q9Y4B6 (whole entry, looked up): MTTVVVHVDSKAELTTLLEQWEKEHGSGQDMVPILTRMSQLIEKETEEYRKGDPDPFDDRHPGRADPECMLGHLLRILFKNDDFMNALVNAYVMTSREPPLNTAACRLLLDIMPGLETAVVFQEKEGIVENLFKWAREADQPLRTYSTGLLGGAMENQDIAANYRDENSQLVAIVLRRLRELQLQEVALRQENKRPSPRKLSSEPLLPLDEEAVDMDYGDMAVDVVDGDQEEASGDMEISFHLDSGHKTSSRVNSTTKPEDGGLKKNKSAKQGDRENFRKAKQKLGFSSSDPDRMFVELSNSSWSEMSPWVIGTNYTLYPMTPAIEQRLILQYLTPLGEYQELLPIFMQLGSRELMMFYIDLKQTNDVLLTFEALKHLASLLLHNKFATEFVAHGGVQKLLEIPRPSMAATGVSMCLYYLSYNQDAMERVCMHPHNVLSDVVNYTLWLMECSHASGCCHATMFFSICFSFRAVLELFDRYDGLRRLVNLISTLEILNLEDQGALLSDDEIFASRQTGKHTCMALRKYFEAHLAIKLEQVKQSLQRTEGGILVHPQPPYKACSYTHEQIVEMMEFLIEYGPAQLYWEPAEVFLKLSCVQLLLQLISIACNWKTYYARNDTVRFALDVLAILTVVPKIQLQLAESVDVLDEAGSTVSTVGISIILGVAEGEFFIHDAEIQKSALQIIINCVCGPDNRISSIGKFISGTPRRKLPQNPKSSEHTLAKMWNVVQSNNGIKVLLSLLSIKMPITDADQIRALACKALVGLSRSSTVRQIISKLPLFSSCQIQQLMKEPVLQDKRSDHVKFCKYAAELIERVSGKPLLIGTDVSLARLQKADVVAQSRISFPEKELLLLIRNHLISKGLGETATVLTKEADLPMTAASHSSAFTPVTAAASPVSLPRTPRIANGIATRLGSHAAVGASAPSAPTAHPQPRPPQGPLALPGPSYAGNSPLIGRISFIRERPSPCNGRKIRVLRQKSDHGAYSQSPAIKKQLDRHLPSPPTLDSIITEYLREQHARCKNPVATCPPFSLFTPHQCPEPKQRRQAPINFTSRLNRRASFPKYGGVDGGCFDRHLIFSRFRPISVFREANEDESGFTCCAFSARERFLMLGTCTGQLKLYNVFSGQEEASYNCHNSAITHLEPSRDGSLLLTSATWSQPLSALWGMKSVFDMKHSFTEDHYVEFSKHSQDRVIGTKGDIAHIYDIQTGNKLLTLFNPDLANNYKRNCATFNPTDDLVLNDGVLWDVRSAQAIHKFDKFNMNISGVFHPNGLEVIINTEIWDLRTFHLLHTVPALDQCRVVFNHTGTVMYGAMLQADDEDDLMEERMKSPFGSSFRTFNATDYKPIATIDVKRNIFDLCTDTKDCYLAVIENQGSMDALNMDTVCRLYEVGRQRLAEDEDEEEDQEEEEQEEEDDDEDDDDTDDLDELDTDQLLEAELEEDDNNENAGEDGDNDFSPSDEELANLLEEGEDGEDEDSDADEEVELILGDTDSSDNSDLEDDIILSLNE
WDR5; 41.8 °C: 14300 a.u.
DCAF1; 39.2 °C: 11100 a.u.
DCAF1; 60.41 °C: 48600 a.u.
WDR5; 88.81 °C: 56700 a.u.
WDR5; 89.41 °C: 55900 a.u.
DCAF1; 87.81 °C: 34000 a.u.
DCAF1; 90.61 °C: 31900 a.u.
WDR5; 54.61 °C: 16900 a.u.
DCAF1; 74.61 °C: 44100 a.u.
WDR5; 28.6 °C: 13500 a.u.
DCAF1; 52.81 °C: 21900 a.u.

Study 2 — effect on: kinase activity; measurement: inhibition
SMILES: CNc1ncc2cc(-c3cc(OC)cc(OC)c3Cl)c(=O)n(CCc3ccc(NC(=O)C(C#N)=CC(C)(C)N4CCOCC4)cc3)c2n1
PDGFRB: Platelet-derived growth factor receptor beta (PDGFRB, Homo sapiens, UniProt P09619)
PDGFRB; 1 µM: 35%
FGFR3 (Homo sapiens, UniProt P22607); 0.1 µM: 95% and > 90%
PDGFRB; 0.1 µM: 9%
JAK3 (Homo sapiens, UniProt P52333); 1 µM: -5%
PLK3 (Homo sapiens, UniProt Q9H4B4); 1 µM: 1%
TEC (Homo sapiens, UniProt P42680); 0.1 µM: 0%
EPHA4 (Homo sapiens, UniProt P54764); 1 µM: 0%
EIF2AK3 (Homo sapiens, UniProt Q9NZJ5); 0.1 µM: 39%
PLK4 (Homo sapiens, UniProt O00444); 0.1 µM: 0%
MKNK1 (Homo sapiens, UniProt Q9BUB5); 0.1 µM: 8%
PRKG2 (Homo sapiens, UniProt Q13237); 1 µM: 1%
MINK1 (Homo sapiens, UniProt Q8N4C8); 0.1 µM: 9%
SGK2 (Homo sapiens, UniProt Q9HBY8); 0.1 µM: -1%
MERTK (Homo sapiens, UniProt Q12866); 0.1 µM: 2%
PIK3CG (Homo sapiens, UniProt P48736); 1 µM: 2%
SRPK1 (Homo sapiens, UniProt Q96SB4); 1 µM: -11%
TTK (Homo sapiens, UniProt P33981); 0.1 µM: 0%
MAPK10 (Homo sapiens, UniProt P53779); 0.1 µM: 7%
TAOK3 (Homo sapiens, UniProt Q9H2K8); 0.1 µM: 1%

Study 3 — effect on: kinase activity; mode: inhibitor; technique: ADP-Glo; tested at: 0.0247 µM; measurement: inhibition
Target: Cyclin-dependent kinase 12, with cyclin K (CDK12, Homo sapiens, UniProt Q9NYV4)
Sequence of UniProt Q9NYV4 (whole entry, looked up): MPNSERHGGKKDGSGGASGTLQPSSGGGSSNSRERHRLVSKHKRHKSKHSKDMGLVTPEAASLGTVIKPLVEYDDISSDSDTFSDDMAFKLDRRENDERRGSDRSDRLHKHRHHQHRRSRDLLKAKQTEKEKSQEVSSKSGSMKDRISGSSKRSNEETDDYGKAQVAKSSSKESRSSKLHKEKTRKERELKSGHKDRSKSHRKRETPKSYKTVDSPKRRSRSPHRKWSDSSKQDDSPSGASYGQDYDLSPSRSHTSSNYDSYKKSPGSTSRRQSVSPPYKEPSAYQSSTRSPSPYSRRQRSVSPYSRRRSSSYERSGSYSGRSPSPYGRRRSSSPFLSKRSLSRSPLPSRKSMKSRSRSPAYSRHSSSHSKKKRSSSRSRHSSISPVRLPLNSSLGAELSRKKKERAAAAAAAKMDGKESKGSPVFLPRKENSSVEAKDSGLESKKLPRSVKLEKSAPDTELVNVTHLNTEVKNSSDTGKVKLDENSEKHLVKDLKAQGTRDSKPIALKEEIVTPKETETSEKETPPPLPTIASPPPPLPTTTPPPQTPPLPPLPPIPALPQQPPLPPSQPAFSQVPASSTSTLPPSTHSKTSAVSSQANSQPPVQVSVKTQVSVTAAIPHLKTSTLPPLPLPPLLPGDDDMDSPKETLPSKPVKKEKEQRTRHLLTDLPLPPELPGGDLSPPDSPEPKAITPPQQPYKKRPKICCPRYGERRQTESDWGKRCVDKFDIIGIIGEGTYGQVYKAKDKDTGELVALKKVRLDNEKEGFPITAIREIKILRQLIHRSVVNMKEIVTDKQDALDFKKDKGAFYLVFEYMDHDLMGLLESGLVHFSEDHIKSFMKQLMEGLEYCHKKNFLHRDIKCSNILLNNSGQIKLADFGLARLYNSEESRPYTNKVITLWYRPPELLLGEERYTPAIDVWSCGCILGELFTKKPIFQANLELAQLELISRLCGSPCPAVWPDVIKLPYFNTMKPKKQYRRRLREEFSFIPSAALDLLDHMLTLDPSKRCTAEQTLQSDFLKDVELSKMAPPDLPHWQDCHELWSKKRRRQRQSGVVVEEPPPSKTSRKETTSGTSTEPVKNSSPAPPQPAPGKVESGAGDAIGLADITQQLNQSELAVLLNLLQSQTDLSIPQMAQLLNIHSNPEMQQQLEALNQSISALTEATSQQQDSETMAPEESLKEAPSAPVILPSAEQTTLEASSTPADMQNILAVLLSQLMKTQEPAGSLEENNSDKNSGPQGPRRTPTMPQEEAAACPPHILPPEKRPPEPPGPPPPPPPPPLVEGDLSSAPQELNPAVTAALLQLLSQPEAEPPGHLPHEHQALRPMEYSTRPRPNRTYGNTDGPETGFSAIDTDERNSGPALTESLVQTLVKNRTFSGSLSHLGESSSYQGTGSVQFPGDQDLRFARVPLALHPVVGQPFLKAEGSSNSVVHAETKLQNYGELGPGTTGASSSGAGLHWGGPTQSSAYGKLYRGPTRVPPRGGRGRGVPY
CCn1cnc2c(NCc3nc4cc(Cl)c(Cl)cc4[nH]3)nc(N3CCN(C(C)=O)CC3)nc21: 22%
CCn1cnc2c(NCc3nc4cc(Cl)c(Cl)cc4[nH]3)nc(N3CCN(C(=O)c4ccncc4)CC3)nc21: 28.4%
CCn1cnc2c(NCc3nc4ccc(F)c(F)c4[nH]3)nc(N3CCn4ncnc4C3)nc21: 17.6%
CCn1cnc2c(NCc3nc4cc(Cl)c(Cl)cc4[nH]3)nc(N3CCN(C(=O)CNC(C)=O)CC3)nc21: 25.7%
CCn1cnc2c(NCc3nc4cc(Cl)c(Cl)cc4[nH]3)nc(N3CCN(C(=O)c4ccccn4)CC3)nc21: 9.4%
CCn1cnc2c(NCc3nc4cc(Cl)c(Cl)cc4[nH]3)nc(N3CCn4ncnc4C3)nc21: 34.9%
CCn1cnc2c(NCc3nc4cc(Cl)c(Cl)cc4[nH]3)nc(N3CCN(C(=O)c4cccnc4)CC3)nc21: 1.4%
CCn1cnc2c(NCc3nc4cc(Cl)c(Cl)cc4[nH]3)nc(N3CCN(S(C)(=O)=O)CC3)nc21: 8.1%
CC(=O)N1CCN(c2nc(NCc3nc4cc(Cl)c(Cl)cc4[nH]3)c3ncn(C)c3n2)CC1: -1.1%
CCn1cnc2c(NCc3nc4cc(Cl)c(Cl)cc4[nH]3)nc(N3CCN(c4ccccn4)CC3)nc21: 14.2%

Study 4 — measurement: inhibition
Structure (SMILES): Cc1ccc(O)c(C)c1-c1cnc2[nH]c(-c3cnc(N4CCC5(CC4)CC(N4CCN(c6ccc(NC7CCC(=O)NC7=O)cc6F)CC4)CO5)nc3)cc2c1C#N (stereo not shown)
PKMYT1: Membrane-associated tyrosine- and threonine-specific cdc2-inhibitory kinase (PKMYT1, Homo sapiens, UniProt Q99640)
Sequence of UniProt Q99640 (whole entry, looked up): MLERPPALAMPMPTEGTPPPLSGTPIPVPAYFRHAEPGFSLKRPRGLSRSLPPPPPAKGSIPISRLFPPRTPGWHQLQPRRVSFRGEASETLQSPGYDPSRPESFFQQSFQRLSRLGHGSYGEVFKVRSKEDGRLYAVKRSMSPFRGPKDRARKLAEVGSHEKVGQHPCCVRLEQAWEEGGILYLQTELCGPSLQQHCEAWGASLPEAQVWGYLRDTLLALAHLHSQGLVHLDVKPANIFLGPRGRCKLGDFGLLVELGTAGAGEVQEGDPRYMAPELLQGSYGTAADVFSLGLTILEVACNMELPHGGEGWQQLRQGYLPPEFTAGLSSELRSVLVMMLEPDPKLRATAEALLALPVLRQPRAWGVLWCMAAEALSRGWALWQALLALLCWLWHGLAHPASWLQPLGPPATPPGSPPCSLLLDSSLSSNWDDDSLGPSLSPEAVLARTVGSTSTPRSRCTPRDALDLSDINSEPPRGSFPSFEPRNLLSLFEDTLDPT
MDA-MB-157; item: CDK1 phospho-Thr14; 0.05 nM: -41.1%
PKMYT1; cell-free assay, inhibitor, TR-FRET; 4.12 nM: 44.3%
HuCCT-1; item: CDK1 phospho-Thr14; 333.33 nM: 84.9%
MDA-MB-157; item: CDK1 phospho-Thr14; 111.11 nM: 25%
PKMYT1; 0.00412 µM: 43.1%
PKMYT1; cell-free assay, inhibitor, TR-FRET; 1.37 nM: 40.3%
MDA-MB-157; item: CDK1 phospho-Thr14; 0.46 nM: -24.6%
HuCCT-1; item: CDK1 phospho-Thr14; 0.15 nM: 7.6%
HCC1599; item: CDK1 phospho-Thr14; 1000 nM: 80.2%

Excerpt of the above (study 3):
CCn1cnc2c(NCc3nc4cc(Cl)c(Cl)cc4[nH]3)nc(N3CCN(C(C)=O)CC3)nc21: 22%
CCn1cnc2c(NCc3nc4cc(Cl)c(Cl)cc4[nH]3)nc(N3CCN(C(=O)c4ccncc4)CC3)nc21: 28.4%
CCn1cnc2c(NCc3nc4cc(Cl)c(Cl)cc4[nH]3)nc(N3CCn4ncnc4C3)nc21: 34.9%
CCn1cnc2c(NCc3nc4cc(Cl)c(Cl)cc4[nH]3)nc(N3CCN(C(=O)CNC(C)=O)CC3)nc21: 25.7%
CC(=O)N1CCN(c2nc(NCc3nc4cc(Cl)c(Cl)cc4[nH]3)c3ncn(C)c3n2)CC1: -1.1%
CCn1cnc2c(NCc3nc4ccc(F)c(F)c4[nH]3)nc(N3CCn4ncnc4C3)nc21: 17.6%
